{"data": "Published values from different studies", "Nuclear receptor subfamily 2 group C member 2 ligand-binding domain": "Nuclear receptor subfamily 2 group C member 2, ligand-binding domain (Homo sapiens, UniProt P49116)", "note": "Compare with care: the assays were run in different laboratories. Values joined by “and” are separate records of one study, mostly repeats; a detail may differ. ± marks the error that the study gave.", "UniProt P11247, sequence (whole entry, looked up)": "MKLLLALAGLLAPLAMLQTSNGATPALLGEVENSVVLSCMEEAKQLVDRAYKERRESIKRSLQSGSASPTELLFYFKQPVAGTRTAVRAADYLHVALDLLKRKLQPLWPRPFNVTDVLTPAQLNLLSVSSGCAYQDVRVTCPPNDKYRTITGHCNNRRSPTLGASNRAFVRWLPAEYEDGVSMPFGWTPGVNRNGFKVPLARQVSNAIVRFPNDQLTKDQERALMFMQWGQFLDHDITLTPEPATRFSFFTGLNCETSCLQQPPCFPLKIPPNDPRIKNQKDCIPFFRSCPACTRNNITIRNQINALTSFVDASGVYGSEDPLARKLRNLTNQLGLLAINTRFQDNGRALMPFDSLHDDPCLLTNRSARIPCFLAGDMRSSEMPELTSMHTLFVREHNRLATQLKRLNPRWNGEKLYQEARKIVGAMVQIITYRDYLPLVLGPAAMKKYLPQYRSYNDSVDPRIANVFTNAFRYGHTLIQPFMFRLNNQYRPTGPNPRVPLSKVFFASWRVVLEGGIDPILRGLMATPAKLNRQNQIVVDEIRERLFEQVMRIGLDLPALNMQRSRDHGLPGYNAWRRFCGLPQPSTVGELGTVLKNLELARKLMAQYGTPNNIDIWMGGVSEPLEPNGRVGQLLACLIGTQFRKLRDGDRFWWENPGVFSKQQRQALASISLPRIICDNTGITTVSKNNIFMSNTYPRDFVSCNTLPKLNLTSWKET", "UniProt P49116, sequence (whole entry, looked up)": "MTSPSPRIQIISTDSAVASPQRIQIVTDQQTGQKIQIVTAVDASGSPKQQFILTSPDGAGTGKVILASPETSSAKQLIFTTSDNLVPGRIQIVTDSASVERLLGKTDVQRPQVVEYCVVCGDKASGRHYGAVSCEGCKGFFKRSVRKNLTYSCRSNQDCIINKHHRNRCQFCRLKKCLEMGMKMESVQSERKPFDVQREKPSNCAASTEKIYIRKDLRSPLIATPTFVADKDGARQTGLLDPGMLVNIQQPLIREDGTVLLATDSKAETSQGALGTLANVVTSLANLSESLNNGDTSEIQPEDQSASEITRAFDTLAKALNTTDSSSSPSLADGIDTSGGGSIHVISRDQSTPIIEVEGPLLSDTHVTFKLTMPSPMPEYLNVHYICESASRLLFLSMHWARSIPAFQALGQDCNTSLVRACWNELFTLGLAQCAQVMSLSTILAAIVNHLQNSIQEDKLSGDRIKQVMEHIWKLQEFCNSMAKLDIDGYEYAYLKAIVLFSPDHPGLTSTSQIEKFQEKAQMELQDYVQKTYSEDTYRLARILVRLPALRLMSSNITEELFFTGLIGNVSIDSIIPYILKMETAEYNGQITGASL", "UniProt P00883, sequence (whole entry, looked up)": "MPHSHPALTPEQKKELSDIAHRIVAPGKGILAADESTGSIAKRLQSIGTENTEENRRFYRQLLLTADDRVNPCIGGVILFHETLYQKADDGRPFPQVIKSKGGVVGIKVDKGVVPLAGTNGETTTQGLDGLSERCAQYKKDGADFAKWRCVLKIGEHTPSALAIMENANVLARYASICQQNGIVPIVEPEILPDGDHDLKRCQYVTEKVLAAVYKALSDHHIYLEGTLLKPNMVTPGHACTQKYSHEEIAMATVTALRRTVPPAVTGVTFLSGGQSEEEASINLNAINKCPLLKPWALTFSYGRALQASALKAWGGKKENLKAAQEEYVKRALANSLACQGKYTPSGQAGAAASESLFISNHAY", "UniProt P46100, sequence (whole entry, unmodified, looked up)": "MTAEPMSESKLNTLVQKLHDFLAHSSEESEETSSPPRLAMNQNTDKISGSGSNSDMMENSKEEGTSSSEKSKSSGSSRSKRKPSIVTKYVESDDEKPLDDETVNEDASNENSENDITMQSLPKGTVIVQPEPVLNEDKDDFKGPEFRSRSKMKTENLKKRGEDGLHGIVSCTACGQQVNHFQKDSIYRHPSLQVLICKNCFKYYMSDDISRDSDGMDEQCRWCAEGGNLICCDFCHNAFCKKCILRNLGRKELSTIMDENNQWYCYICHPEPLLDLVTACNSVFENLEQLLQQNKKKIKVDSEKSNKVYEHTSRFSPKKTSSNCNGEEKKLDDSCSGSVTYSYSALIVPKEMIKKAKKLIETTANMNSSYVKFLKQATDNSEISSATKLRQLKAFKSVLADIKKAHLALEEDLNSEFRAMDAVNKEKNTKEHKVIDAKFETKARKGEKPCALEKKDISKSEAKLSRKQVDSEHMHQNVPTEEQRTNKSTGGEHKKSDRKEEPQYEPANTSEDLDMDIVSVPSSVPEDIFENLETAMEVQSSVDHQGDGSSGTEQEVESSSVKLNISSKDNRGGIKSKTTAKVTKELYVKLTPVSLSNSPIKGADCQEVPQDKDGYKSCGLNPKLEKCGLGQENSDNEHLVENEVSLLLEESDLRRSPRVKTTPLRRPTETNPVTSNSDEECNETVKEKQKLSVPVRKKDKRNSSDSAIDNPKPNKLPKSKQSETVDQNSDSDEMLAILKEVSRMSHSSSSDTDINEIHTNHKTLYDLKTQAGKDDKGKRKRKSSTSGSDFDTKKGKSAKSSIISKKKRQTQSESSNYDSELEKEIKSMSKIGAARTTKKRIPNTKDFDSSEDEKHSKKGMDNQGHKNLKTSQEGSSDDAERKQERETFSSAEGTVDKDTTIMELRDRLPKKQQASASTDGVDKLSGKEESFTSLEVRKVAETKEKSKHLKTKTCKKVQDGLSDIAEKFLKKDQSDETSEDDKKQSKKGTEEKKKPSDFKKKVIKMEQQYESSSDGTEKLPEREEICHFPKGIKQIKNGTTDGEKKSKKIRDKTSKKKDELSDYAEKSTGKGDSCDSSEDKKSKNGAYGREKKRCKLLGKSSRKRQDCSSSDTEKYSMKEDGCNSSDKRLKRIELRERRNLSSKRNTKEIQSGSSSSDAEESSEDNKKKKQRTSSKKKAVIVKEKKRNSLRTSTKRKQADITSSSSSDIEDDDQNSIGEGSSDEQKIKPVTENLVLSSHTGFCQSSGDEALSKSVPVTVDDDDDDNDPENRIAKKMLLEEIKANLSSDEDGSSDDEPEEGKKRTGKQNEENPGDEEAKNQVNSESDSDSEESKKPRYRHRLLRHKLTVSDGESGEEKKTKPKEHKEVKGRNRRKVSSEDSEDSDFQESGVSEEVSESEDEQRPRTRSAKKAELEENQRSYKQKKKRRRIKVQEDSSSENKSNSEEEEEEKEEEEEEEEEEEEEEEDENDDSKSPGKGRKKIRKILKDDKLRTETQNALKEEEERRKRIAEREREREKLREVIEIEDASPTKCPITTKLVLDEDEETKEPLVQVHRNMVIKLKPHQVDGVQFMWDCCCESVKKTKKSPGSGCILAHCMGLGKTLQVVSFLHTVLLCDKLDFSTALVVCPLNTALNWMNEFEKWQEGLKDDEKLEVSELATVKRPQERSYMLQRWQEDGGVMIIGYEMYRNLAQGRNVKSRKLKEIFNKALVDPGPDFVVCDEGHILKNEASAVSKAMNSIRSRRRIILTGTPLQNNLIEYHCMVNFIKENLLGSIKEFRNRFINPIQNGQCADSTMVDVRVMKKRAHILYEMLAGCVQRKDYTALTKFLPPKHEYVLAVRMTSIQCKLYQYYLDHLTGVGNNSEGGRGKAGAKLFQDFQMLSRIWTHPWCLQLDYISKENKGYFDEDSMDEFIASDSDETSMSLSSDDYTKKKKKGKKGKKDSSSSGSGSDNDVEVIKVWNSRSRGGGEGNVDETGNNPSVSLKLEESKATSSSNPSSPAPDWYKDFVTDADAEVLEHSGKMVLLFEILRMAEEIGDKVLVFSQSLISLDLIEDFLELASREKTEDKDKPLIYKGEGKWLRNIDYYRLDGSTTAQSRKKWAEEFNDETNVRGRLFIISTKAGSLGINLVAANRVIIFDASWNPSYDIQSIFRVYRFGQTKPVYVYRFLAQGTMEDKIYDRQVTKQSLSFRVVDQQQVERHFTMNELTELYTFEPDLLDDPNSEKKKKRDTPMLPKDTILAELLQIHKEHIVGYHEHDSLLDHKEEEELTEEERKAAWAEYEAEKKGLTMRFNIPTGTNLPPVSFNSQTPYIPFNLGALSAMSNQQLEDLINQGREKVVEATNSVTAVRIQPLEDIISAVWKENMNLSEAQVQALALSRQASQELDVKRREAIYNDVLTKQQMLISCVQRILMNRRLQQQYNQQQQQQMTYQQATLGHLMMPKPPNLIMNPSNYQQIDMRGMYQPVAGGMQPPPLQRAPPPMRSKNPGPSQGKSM", "UniProt P02763, sequence (whole entry, looked up)": "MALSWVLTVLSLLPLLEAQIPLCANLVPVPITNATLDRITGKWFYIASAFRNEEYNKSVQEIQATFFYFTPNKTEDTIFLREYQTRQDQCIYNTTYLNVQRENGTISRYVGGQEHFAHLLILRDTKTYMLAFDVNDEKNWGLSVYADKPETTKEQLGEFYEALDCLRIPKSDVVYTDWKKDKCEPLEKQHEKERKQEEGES", "UniProt P34995, sequence (whole entry, unmodified, looked up)": "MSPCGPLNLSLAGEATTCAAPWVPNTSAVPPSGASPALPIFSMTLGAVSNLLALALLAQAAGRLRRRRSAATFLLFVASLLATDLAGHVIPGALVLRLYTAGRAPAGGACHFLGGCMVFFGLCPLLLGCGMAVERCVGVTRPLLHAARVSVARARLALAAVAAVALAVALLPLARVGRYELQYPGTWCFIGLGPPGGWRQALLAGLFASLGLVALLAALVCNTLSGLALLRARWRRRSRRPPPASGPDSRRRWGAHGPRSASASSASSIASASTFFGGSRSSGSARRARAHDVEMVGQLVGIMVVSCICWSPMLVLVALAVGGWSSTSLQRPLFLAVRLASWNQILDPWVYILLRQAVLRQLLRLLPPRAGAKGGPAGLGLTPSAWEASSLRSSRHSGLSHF", "UniProt Q16774, sequence (whole entry, unmodified, looked up)": "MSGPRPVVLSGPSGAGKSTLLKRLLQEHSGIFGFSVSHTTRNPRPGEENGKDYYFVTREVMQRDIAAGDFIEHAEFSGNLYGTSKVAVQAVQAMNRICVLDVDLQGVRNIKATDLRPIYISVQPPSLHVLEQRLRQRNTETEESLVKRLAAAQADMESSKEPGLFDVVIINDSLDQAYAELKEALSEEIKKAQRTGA"}
{"Structure (SMILES)": "C[C@@H](c1ccc(-n2cnc3c(N)ncnc32)cc1)N1CCc2nn(C)c(Cc3ccccc3)c2C1=O", "target or system": "EGFR (Homo sapiens, UniProt P00533, del746-750)", "test": "KINOMEscan", "conditions": "0.1 µM", "scale": "baseline: DMSO control", "quantity": "remaining binding", "value": "70%"}
{"Structure (SMILES)": "N#Cc1cc(Cn2cncc2CN2CCN(c3cccc(OC(F)(F)F)c3)C(=O)C2)ccc1Oc1ccccc1", "target or system": "Cryptococcus neoformans farnesyltransferase", "test": "enzyme activity, inhibitor, fluorescence", "conditions": "with: 1 µM FPP, 0.5 µM dansylated peptide", "quantity": "IC50", "value": "0.32 ± 0.1 µM"}
{"Structure (SMILES)": "COc1cc(Nc2ncc3c(n2)-c2ccc(Cl)cc2C(c2c(F)cccc2OC)=NC3)ccc1C(=O)O", "target or system": "FER", "test": "kinase activity", "conditions": "1 µM", "quantity": "remaining activity", "value": "30%"}
{"Structure (SMILES)": "C[C@H](N)C(=O)N[C@@H](C)C(=O)N[C@H](C(=O)N[C@@H](CCCCN)C(=O)N[C@@H](CCC(N)=O)C(=O)N[C@H](C(=O)N[C@@H](C)C(=O)N[C@@H](CCCNC(=N)N)C(=O)N[C@@H](CCCCN)C(=O)N[C@@H](CO)C(=O)O)[C@@H](C)O)[C@@H](C)O", "target or system": "Transcriptional regulator ATRX (ATRX, Homo sapiens, UniProt P46100, F284Y/K251R)", "test": "isothermal titration calorimetry", "conditions": "concentration not given, pH 7.5, 25.0 °C", "quantity": "binding enthalpy", "value": "-4.47 kcal/mol"}
{"Structure (SMILES)": "C=C(C)[C@@H](CC=C(C)C)C[C@@]12C[C@@H](CC=C(C)C)C(C)(C)[C@@](CC=C(C)C)(C(=O)C(C(=O)c3ccc(O)c(O)c3)=C1O)C2=O", "target or system": "OCI-Ly1", "conditions": "1 µM, 120 h", "quantity": "viability", "value": "24.2%"}
{"Structure (SMILES)": "O=C(Nc1ccc(CN2CCOCC2)c(C(F)(F)F)c1)c1ccc(C#Cc2cccc3cnccc23)cn1", "target or system": "NUDT1 (Homo sapiens, UniProt P36639)", "test": "activator, item: endogenous MTH1", "test system": "HCC1806 whole cell lysate", "conditions": "20 µM", "quantity": "activity", "value": "> 200%"}
{"Structure (SMILES)": "O=C(c1ccc(OCCN2CCCCC2)cc1)c1c(-c2ccc(O)cc2)sc2cc(O)ccc12", "target or system": "Nuclear receptor subfamily 2 group C member 2 ligand-binding domain", "test": "SPR imaging", "conditions": "600 nM", "quantity": "koff", "value": "9.62e-06 s⁻¹"}
{"Structure (SMILES)": "CCCCC[C@H](O)/C=C/[C@H]1[C@H](O)CC(=O)[C@@H]1C/C=C\\CCCC(=O)O", "target or system": "PTGER1 (Homo sapiens, UniProt P34995, E134A)", "test": "IP1 accumulation, agonist", "test system": "AD293", "conditions": "1 h, EP1 E134A mutant", "quantity": "Emax", "value": "57.9 ± 4.71%"}
{"Structure (SMILES)": "CC(Oc1ccccc1)C(=O)NCc1ccccn1 (stereo not drawn)", "target or system": "DCAF1 (Homo sapiens, UniProt Q9Y4B6)", "test": "binding, affinity selection mass spectrometry", "scale": "baseline: other proteins in batch", "quantity": "fold enrichment", "value": 0.711}
{"Structure (SMILES)": "CC(C)C[C@@H]1NC(=O)[C@H](C(C)C)NC(=O)[C@H](CCC(=O)O)NC(=O)[C@@H](NC(=O)[C@H](C)N)CSSC[C@@H](C(=O)N[C@@H](CO)C(=O)NCC(N)=O)NC(=O)CNC(=O)[C@H]([C@@H](C)O)NC(=O)[C@H](Cc2c[nH]c3ccccc23)NC(=O)[C@H](CC(=O)O)NC(=O)[C@H](Cc2ccc(O)cc2)NC(=O)[C@H](CO)NC1=O", "target or system": "ALDOA (Oryctolagus cuniculus, UniProt P00883)", "test": "surface plasmon resonance", "conditions": "pH 7.4, 25 °C, 2% DMSO, 0.005% Tween-20, 1:1 model", "quantity": "dissociation rate constant", "value": "0.015 s⁻¹"}
{"Structure (SMILES)": "CN(C)CCC(c1ccccc1)c1ccccn1 (stereo not drawn)", "target or system": "Nuclear receptor subfamily 2 group C member 2 ligand-binding domain", "test": "SPR imaging", "conditions": "600 nM", "quantity": "koff", "value": "6.48e-07 s⁻¹"}
{"Structure (SMILES)": "NC/C(=C\\F)COc1cccc(Cn2c(=S)[nH]c(=O)c3[nH]cnc32)c1", "target or system": "Myeloperoxidase (Mus musculus, UniProt P11247)", "test system": "mouse, zymosan or thioglycolate peritonitis, peritoneal fluid", "conditions": "60 mg/kg", "scale": "baseline: peritonitis vehicle", "quantity": "MPO activity", "value": "66.8% and 53.2% and 14.6% and 13.4% and 61% and 42.6%"}
{"Structure (SMILES)": "COc1c(O)c(C)cc2c1C(=O)c1c(O)cccc1C2=O", "target or system": "HepaRG co-cultured with HK-2", "test": "MTT", "conditions": "16.67 µM, 24 h", "scale": "baseline: untreated control", "quantity": "cell viability", "value": "90.9 ± 14.5%"}
{"Structure (SMILES)": "CCS(=O)(=O)N1CC(CC#N)(n2cc(-c3ncnc4[nH]ccc34)cn2)C1", "target or system": "ORM1 (Homo sapiens, UniProt P02763)", "test": "fluorescence quenching", "conditions": "293-308 K", "quantity": "fraction of accessible fluorophore", "value": "0.53 to 0.69"}
{"Structure (SMILES)": "O=C(/C=C/N1C[C@H]2C[C@@H]1CN2c1ccccn1)c1ccccc1O", "target or system": "OCI-Ly1", "conditions": "0.1 µM, 120 h", "quantity": "viability", "value": "9.9%"}
{"Structure (SMILES)": "Oc1ccc(/C=C/c2cc(O)cc(O)c2)cc1", "target or system": "O-methyltransferase (Sorghum bicolor, UniProt A0A1B6PFV1)", "test": "ITC", "conditions": "endothermic site, two-site model, with: SFG", "quantity": "-T∆S", "value": "-10.9 kcal/mol"}
{"Structure (SMILES)": "O=c1nc(SCc2cc(F)cc(C(F)(F)F)c2)nc(SCc2ccc3nc(OCCN4CCOCC4)ccc3c2)[nH]1", "target or system": "TOP2A (Homo sapiens, UniProt P11388)", "test": "decatenation", "conditions": "15.6 µM", "quantity": "mean decatenated DNA", "value": "79.3%"}
{"Structure (SMILES)": "Nc1nc2c(ncn2[C@@H]2O[C@H](COP(=O)(O)OP(=O)(O)O)[C@@H](O)[C@H]2O)c(=O)[nH]1", "target or system": "GUK1 (Homo sapiens, UniProt Q16774, R137A)", "test": "binding, ITC", "conditions": "with: GMP", "quantity": "-TΔS", "value": "3.17 kcal/mol"}
{"note": "For quick reference, copied from above:"}
{"Structure (SMILES)": "CCS(=O)(=O)N1CC(CC#N)(n2cc(-c3ncnc4[nH]ccc34)cn2)C1", "target or system": "ORM1 (Homo sapiens, UniProt P02763)", "test": "fluorescence quenching", "conditions": "293-308 K", "quantity": "fraction of accessible fluorophore", "value": "0.53 to 0.69"}
